Published values pooled from the literature.
Compare with care: the assays were run in different laboratories. Several values in a cell are separate wells, animals, samples, runs or records. ± marks the error that the study gave.
uncharacterized protein: uncharacterized protein (Anopheles coluzzii, UniProt A0A6E8VQK1)
UniProt P04756, sequence (whole entry, looked up): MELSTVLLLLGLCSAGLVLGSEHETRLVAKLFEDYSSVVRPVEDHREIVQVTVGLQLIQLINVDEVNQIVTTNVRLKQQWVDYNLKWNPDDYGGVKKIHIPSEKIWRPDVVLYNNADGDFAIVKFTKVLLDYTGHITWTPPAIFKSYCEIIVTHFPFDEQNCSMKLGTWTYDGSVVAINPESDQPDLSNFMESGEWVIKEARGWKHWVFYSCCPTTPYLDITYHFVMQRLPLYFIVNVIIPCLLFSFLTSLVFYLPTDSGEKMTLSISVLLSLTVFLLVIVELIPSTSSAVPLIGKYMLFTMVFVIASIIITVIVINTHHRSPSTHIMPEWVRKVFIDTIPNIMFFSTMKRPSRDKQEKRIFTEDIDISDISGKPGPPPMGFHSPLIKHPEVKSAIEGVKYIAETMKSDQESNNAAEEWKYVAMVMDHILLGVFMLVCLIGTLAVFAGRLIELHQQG
UniProt P20782, sequence (whole entry, looked up): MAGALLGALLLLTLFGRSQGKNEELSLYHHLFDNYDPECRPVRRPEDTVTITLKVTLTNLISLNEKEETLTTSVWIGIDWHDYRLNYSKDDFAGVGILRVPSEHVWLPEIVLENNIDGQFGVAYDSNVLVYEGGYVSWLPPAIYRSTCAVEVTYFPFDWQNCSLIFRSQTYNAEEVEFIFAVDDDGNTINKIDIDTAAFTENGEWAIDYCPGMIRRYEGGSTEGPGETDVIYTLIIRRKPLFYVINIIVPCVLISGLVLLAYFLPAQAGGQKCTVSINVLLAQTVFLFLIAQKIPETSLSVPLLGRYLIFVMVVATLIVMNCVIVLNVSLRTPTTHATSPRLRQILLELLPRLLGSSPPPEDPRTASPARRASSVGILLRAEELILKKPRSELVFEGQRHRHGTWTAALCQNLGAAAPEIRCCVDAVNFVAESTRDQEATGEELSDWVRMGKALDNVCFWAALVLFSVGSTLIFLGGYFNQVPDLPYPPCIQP
UniProt P41738, sequence (whole entry, looked up): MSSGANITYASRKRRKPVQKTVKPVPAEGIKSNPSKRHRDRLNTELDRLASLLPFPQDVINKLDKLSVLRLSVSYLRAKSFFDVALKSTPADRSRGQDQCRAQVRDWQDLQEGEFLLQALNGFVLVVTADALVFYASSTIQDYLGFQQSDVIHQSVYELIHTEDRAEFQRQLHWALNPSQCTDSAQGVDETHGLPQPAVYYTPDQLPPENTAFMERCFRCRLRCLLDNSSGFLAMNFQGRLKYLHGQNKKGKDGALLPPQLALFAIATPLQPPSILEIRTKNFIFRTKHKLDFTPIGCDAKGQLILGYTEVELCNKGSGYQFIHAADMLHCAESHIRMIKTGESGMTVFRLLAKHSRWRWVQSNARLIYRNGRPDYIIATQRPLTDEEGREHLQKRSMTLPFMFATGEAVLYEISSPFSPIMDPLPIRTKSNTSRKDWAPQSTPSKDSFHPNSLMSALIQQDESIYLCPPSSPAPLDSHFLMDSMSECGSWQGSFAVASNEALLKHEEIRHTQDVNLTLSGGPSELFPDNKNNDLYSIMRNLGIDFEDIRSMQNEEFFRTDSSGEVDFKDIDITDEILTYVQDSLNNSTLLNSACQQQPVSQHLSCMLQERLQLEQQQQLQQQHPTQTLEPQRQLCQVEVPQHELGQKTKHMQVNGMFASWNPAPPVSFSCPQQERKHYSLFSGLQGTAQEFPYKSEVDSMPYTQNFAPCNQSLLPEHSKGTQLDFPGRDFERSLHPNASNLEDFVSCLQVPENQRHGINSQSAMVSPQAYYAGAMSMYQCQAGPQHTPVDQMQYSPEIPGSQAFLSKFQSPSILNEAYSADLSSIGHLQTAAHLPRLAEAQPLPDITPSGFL
UniProt P62136, sequence (whole entry, unmodified, looked up): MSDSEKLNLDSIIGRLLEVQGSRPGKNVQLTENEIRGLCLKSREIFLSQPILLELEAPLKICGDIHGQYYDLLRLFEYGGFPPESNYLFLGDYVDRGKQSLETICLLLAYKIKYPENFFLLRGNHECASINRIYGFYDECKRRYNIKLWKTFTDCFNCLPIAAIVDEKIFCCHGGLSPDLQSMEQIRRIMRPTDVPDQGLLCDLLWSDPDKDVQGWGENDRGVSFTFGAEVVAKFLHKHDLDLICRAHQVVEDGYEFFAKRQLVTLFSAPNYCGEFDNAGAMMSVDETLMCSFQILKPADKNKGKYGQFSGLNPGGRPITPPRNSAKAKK
UniProt P16234, sequence (whole entry, looked up): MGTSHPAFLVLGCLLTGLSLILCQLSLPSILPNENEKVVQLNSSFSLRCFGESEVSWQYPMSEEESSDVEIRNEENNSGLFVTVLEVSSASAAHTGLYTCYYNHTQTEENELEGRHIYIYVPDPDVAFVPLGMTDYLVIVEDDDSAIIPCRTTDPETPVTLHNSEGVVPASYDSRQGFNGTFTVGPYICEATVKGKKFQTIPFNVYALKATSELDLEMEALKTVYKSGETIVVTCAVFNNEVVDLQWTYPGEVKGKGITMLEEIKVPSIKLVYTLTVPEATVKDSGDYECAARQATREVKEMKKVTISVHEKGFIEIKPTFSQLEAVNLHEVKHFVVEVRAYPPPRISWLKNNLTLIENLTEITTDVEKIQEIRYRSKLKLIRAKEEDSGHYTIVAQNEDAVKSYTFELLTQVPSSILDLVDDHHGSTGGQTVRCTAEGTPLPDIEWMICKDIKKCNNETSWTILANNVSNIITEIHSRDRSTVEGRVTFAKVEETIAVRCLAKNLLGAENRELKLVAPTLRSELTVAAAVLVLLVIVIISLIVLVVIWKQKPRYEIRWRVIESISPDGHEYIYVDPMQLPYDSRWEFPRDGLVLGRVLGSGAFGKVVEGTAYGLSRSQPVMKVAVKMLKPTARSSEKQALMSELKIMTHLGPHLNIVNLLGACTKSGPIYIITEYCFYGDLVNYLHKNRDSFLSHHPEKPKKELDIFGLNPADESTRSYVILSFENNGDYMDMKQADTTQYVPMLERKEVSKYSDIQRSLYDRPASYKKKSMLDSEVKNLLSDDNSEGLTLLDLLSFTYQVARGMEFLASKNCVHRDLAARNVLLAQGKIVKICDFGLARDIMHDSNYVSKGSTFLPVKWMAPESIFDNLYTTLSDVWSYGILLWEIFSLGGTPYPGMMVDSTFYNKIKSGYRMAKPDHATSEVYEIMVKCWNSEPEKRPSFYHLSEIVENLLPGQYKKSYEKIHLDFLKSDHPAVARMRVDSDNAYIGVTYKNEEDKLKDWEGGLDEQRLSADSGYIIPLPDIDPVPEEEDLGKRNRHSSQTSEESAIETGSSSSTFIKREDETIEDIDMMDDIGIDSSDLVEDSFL
UniProt Q8NEZ5, sequence (whole entry, looked up): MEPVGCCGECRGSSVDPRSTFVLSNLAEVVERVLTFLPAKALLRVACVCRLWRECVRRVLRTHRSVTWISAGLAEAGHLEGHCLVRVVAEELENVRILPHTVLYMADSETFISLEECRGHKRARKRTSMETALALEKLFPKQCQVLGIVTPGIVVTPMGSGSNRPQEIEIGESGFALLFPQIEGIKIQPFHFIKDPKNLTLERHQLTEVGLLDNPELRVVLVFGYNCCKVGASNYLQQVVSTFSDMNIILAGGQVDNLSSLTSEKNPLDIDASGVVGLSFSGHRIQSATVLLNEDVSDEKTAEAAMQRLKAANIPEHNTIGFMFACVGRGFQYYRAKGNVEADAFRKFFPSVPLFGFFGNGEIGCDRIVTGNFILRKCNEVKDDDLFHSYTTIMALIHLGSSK
UniProt P32238, sequence (whole entry, looked up): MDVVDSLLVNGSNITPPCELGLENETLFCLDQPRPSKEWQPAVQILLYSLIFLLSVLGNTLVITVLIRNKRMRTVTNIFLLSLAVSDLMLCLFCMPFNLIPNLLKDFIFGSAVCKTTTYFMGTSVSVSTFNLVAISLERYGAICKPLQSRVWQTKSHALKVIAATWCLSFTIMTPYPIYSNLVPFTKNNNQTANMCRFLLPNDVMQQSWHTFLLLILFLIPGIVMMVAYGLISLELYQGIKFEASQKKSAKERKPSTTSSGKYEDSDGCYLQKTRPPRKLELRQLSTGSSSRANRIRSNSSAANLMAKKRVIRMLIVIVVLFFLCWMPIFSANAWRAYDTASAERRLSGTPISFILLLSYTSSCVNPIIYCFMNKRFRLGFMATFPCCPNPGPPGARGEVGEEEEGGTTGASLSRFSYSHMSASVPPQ
UniProt Q9ULW8, sequence (whole entry, looked up): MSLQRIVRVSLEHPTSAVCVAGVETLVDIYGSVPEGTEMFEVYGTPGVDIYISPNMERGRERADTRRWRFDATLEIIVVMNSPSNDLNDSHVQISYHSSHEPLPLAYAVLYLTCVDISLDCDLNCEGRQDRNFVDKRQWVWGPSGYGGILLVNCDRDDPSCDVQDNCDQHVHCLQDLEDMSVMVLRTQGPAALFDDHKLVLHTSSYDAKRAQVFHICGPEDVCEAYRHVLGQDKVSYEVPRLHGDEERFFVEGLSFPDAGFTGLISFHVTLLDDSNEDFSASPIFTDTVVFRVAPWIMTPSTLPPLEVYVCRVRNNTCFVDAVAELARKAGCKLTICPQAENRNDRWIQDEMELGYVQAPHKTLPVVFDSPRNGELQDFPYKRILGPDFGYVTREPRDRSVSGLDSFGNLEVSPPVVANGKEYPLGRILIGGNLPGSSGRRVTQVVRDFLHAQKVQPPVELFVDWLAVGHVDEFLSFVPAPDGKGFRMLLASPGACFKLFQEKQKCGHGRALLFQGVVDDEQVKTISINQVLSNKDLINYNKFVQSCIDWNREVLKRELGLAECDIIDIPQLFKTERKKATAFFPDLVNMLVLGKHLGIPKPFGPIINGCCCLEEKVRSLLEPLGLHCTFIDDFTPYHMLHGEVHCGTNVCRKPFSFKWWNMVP
UniProt P00942, sequence (whole entry, unmodified, looked up): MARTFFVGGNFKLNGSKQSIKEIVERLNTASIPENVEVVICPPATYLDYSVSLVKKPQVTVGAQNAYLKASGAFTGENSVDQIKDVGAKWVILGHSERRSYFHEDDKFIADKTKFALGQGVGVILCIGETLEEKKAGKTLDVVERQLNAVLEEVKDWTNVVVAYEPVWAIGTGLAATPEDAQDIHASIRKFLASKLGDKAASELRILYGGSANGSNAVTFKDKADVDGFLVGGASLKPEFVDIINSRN

C/C=C(/C)C(=O)O[C@H]1C(C)=C2[C@H]([C@@H]1OC(=O)CCCCCCC)[C@@](C)(OC(C)=O)C[C@H](OC(=O)CCC)[C@@]1(O)[C@H]2OC(=O)[C@@]1(C)O — FLuc/RLuc ratio (Protein transport protein Sec61 subunit alpha isoform 1 (Homo sapiens, UniProt P61619); Sec61-dependent translocation, inhibitor, refers to: CD4 signal peptide-FLuc reporter; HEK293; concentration not given; relative to: mock): 0.909
CC1(C)C(C=C(Cl)Cl)C1C(=O)OCc1cccc(Oc2ccccc2)c1 (centres unmarked) — remaining activity (uncharacterized protein; enzyme activity, inhibitor; Sf9 cell homogenate; 4.94 µM, 0.1667 h, added: α-naphthyl acetate substrate; relative to: no inhibitor): 97.1%
O=P(O)(O)OC[C@H]1C[C@](O)(CO)[C@@H](O)[C@H](O)[C@@H]1O — apparent Vmax (valA (Streptomyces hygroscopicus, UniProt H2K887); phosphate release; 10 µM): 3.3 ± 0.4 µM/min
O=C(O)Cc1c[nH]c2ccccc12 — binding (Germin-like protein subfamily 3 member 1 (GLP1, Arabidopsis thaliana, UniProt P94040, H100A/H102A); microscale thermophoresis; Arabidopsis protoplast extract; concentration not given, Flag-tagged mutant): no binding
CCCCCCCCCC[N+](C)(C)C.[Br-] — k-1 (Sodium channel protein type 4 alpha, BTX-activated (Oryctolagus cuniculus, UniProt G1SLL9); concentration not given): 75 s⁻¹
CC(C)C[C@H](NC(=O)[C@@H](NC(=O)N[C@@H](Cc1ccccc1)C(=O)O)[C@@H]1CCN=C(N)N1)C(=O)N[C@H](C=O)Cc1ccccc1 — Hill slope (Cathepsin G (CTSG, Homo sapiens, UniProt P08311)): -1.14
CC(CCn1ccc(-c2ccc(-c3cn(Cc4ccccc4)nn3)cc2)cc1=O)(C(=O)NO)S(C)(=O)=O (centres unmarked) — residence time (UDP-3-O-acyl-N-acetylglucosamine deacetylase (Pseudomonas aeruginosa, UniProt P47205); fluorescence; 37 °C): 57.3 min and 57 min
Cc1ccc(OP(=O)(Oc2ccc(C)cc2)Oc2ccc(C)cc2)cc1 — ED50 (Acylamino-acid-releasing enzyme (Apeh, Mus musculus, UniProt Q8R146); mouse; oral): > 240 mg/kg
CC[C@H](C)[C@H](NC(=O)CNC(=O)[C@@H](N)CCCCN)C(=O)N[C@@H](CC(C)C)C(=O)N[C@@H](CCCCN)C(=O)N[C@@H](CC(N)=O)C(=O)N[C@@H](CCCNC(=N)N)C(=O)N[C@@H](C)C(=O)N[C@@H](CCCNC(=N)N)C(=O)N[C@@H](CCCNC(=N)N)C(=O)N[C@@H](CCC(=O)O)C(=O)N[C@@H](CCCNC(=N)N)C(=O)N1CCC[C@H]1C(=O)NCC(=O)N[C@@H](CCCCN)C(=O)N[C@@H](CCCNC(=N)N)C(=O)N[C@@H](CCCCN)C(=O)N[C@@H](CC(N)=O)C(=O)N[C@H](C(=O)N[C@@H](Cc1c[nH]cn1)C(=O)N[C@@H](Cc1c[nH]c2ccccc12)C(=O)N1CCC[C@H]1C(=O)N[C@@H](CCC(=O)O)C(=O)N[C@@H](CCC(=O)O)C(=O)NCC(=O)N[C@@H](CCCCN)C(=O)N[C@@H](CC(C)C)C(=O)N[C@@H](CCCNC(=N)N)C(=O)N[C@@H](CCC(=O)O)C(=O)N[C@@H](Cc1ccc(O)cc1)C(=O)N[C@@H](Cc1ccccc1)C(=O)N[C@@H](Cc1ccc(O)cc1)C(=O)N[C@@H](Cc1ccccc1)C(=O)N[C@@H](CCC(=O)O)C(=O)N[C@@H](CC(C)C)C(=O)N[C@@H](CC(=O)O)C(=O)N[C@@H](CCC(=O)O)C(=O)N[C@@H](C)C(=O)N[C@@H](CCC(=O)O)C(=O)N[C@@H](CCCNC(=N)N)C(=O)N[C@H](C(=O)N[C@@H](CC(N)=O)C(=O)N[C@H](C(=O)O)C(C)C)C(C)C)C(C)C — ΔG of binding (PPP1CA (Homo sapiens, UniProt P62136); ITC; concentration not given, 25 °C, PP1α 7-330): -11.5 ± 0.1 kcal/mol
COc1ccc(N2C(=O)N(c3c(C)cccc3Cl)Cc3cnc(Nc4ccc(C5CCN(C)CC5)cc4OC)nc32)nc1 — inhibition (CHEK1 (Homo sapiens, UniProt O14757); kinase activity; 0.5 µM): 7.4%
O=C1c2ccccc2C(=O)C1C(=O)C(c1ccccc1)c1ccc(Cl)cc1 (centres unmarked) — activity (Nuclear receptor subfamily 1 group I member 3 (Homo sapiens, UniProt Q14994); cells; concentration not given): inactive
CN1CCN(c2cc(-c3ccncc3)c(-c3ccc4ccccc4c3)nn2)CC1 — activation (Oxytocin receptor (OXTR, Homo sapiens, UniProt P30559); agonist, FLIPR; 12.5 µM): -0.6%
Cc1ncc(C)n2nc(/C=C/c3nc(N4CCCC4)cc(N4CCOCC4)n3)nc12 — inhibition (human androgen receptor; radioligand binding; 10 µM): 5%
Nc1ncc(-c2nc(N3CCOCC3)nc(N3CCOCC3)n2)c(C(F)F)n1 — remaining binding (PDGFRA (Homo sapiens, UniProt P16234); KINOMEscan; 10 µM): 80%
CC(C)C[C@H](NC(=O)[C@@H]1CCCN1C(=O)[C@H](CCCNC(=N)N)NC(=O)[C@H](CC(C)C)NC(=O)[C@H](CCCNC(=N)N)NC(=O)[C@H](CC(=O)O)NC(=O)[C@H](Cc1ccc(O)cc1)NC(=O)[C@H](CC(=O)O)NC(=O)[C@H](CCC(=O)O)NC(=O)[C@H](CCC(N)=O)NC(=O)CN)C(=O)O — koff (Epithelial sodium channel subunit gamma (Homo sapiens, UniProt P51170); binding, bio-layer interferometry): 16.5 s⁻¹
Clc1cc2c(cc1Cl)Oc1cc(Cl)c(Cl)cc1O2 — Hill slope (Ahr (Rattus norvegicus, UniProt P41738); reporter gene, agonist; 384-well format): 47.3
CN(C(=O)n1cnc(-c2ccc[n+]([O-])c2)c1)C1CCCCC1 — inhibition (CHUK (Homo sapiens, UniProt O15111); enzyme activity; 50 µM): 1%
COC(=O)[C@@]1(O)C[C@H]2O[C@]1(C)n1c3ccccc3c3c4c(c5c6ccccc6n2c5c31)C(=O)NC4 — remaining activity (MAPK3 (Homo sapiens, UniProt P27361); ADP-Glo; 5.92 µM, added: substrate MBP): 112%
CC(C)[C@@H](O)CC[C@@H](C)[C@H]1CC[C@H]2[C@@H]3CC=C4C[C@@H](O)CC[C@]4(C)[C@H]3CC[C@]12C — current response (Glutamate NMDA receptor; GRIN1/GRIN2B (GRIN1/GRIN2B, Homo sapiens, UniProt Q05586+Q13224, L551A); positive allosteric modulator, two-electrode voltage clamp; Xenopus oocytes expressing GluN2B-L551A; 10 µM, 0.02% cremophor, added: 100 µM glutamate and glycine; relative to: without compound): 534 ± 40%
O=c1c2ccccc2oc2cc(OCCCCc3ccccc3)ccc12 — reaction velocity (ache (Electrophorus electricus, UniProt O42275); enzyme activity; 2.91 µM, added: substrate 0.86 mM; higher = faster reaction): 0.0008 a.u.
O=C(Cc1cccs1)N[C@@H]1C(=O)N2C(C(=O)O)=C(/C=C/c3ccc([N+](=O)[O-])cc3[N+](=O)[O-])CS[C@H]12 — kcat (blaNDM-1 (Klebsiella pneumoniae, UniProt C7C422, C208H); substrate, steady-state kinetics): ≤ 0.1 s⁻¹
CCn1c(-c2nc3cc(C(=O)N4CCC[C@@H](N)C4)cc(OC)c3n2C)cc2cccnc21 — selectivity ratio (PADI3 (Homo sapiens, UniProt Q9ULW8); relative to: Ki PADI3 over Ki PAD4): 58
CN[C@@H]1C[C@H]2O[C@@](C)([C@@H]1OC)n1c3ccccc3c3c4c(c5c6ccccc6n2c5c31)C(=O)NC4 — ΔTm (SRC (Homo sapiens, UniProt P12931); binder, differential scanning fluorimetry): 0 °C
O=C(c1ccc(Cl)cc1)N1CCN2C(=O)N(OC(=O)N3CCOc4ccccc43)C(=O)C2C1 (centres unmarked) — mean protein ratio (Dipeptidyl peptidase 2 (Homo sapiens, UniProt Q9UHL4); MS-based ABPP; SW-620 conditioned medium; 10 µM, 1 h, 37 °C; relative to: compound over DMSO, lower = more inhibition): 1.05
O=C(Nc1cnccc1Cl)N1CCN(Cc2ccc3c(c2)OC(F)(F)O3)CC1 — inhibition (CCKAR (Homo sapiens, UniProt P32238); binding; 50 µM, added: [3H]L-364,718): -13%
O=C(O)COP(=O)(O)O — Ki ratio (TPI1 (Saccharomyces cerevisiae, UniProt P00942, S211G/Y208T); enzyme activity, competitive inhibitor, GPDH/NADH-coupled; pH 4.9, 25 °C, ionic strength 0.1 NaCl, added: glyceraldehyde 3-phosphate substrate; relative to: mutant over wild type): 26
COc1cc(N)c(Cl)cc1C(=O)NC1CN2CCC1CC2 (centres unmarked) — log2 fold change (Probable G-protein coupled receptor 63 (GPR63, Homo sapiens, UniProt Q9BZJ6); β-arrestin recruitment, TANGO luminescence, refers to: GPR63; concentration not given; relative to: basal luminescence): -0.698
COc1cc(C=O)cc2c1[C@H](COC(N)=O)[C@]1(OC(C)=O)ON2C[C@H]2[C@@H]1N2C(C)=O — fold change (F-box only protein 22 (Homo sapiens, UniProt Q8NEZ5); binding, affinity selection mass spectrometry; 100 nM, pooled screen; relative to: other proteins): 16.4
c1cncc([C@@H]2CCCN2)c1 — resting-state kon (Chrnd/Chrna1/Chrne (Mus musculus, UniProt P02716+P04756+P20782); single-channel kinetics; wild-type receptor): 1.77e+08 M⁻¹ s⁻¹
Nc1nc2c(ncn2[C@@H]2O[C@@H]3COP(=O)(O)O[C@H]4[C@@H](O)[C@H](n5cnc6c(=O)[nH]c(N)nc65)O[C@@H]4COP(=O)(O)O[C@H]3[C@H]2O)c(=O)[nH]1 — -TΔS (Cell cycle histidine kinase CckA, R374A; cytoplasmic region (Caulobacter vibrioides, UniProt Q9X688, R374A); binding, ITC; 12 °C, added: ADP 5 mM): -7 kcal/mol
O=C(Nc1cccnn1)N1CCC(=Cc2cccc(Oc3ccc(C(F)(F)F)cn3)c2)CC1 — inhibition (PRKD2 (Homo sapiens, UniProt Q9BZL6); kinase activity, inhibitor; 10 µM, human, added: MAPKAPK substrate): 2%
CC1(C)[C@H](C(=O)O[C@H](C#N)c2cccc(Oc3ccccc3)c2)[C@@H]1C=C(Br)Br — remaining activity (uncharacterized protein; enzyme activity, inhibitor; Sf9 cell homogenate; 0.04545 µM, 0.1667 h, added: α-naphthyl acetate substrate; relative to: no inhibitor): 99.1%
NC[C@H](NC(=O)c1ccc(-c2ccc(Br)cc2)cc1)C(=O)NO — entropy change (ΔS) (UDP-3-O-acyl-N-acetylglucosamine deacetylase (Pseudomonas aeruginosa, UniProt P47205, C40S); isothermal titration calorimetry; concentration not given, 298 K, untagged protein, averaged): 0.0342 kcal/mol/K
[2H]c1c([2H])c([C@]2([2H])CCCN2C(=O)C(C)(C)Oc2ccc3cn[nH]c3c2)c([2H])c([2H])c1C([2H])([2H])[2H] — remaining binding (NEK3 (Homo sapiens, UniProt P51956); KINOMEscan; 1 µM; relative to: DMSO control): 70%
C[C@H]1CN(c2n[nH]c3nc(N[C@H]4CC[C@H](NS(=O)(=O)CCC(F)(F)F)CC4)ncc23)CCO1 — remaining binding (Stalled ribosome sensor GCN1 (Homo sapiens, UniProt Q92616); Kinobeads competition, refers to: GCN1L1; 20 µM, unit not given; relative to: vehicle): 1.14
